Experimental data from different studies.
Numbers after ± are the reported error.
Cell line: A549

Nc1ncnc2[nH]ncc12
EC50 (cell viability): 3000 nM

NC(=O)Cn1cc(COc2ccccc2-c2nc(Cc3ccccc3)no2)nn1
mRNA level (qPCR, item: PI3K; IC50, 24 h; reference: untreated cancer cells): 0.24 ± 0.03 fold

CC1=CC(=O)c2ccccc2C1=O
inhibition (diacetyl reduction to acetoin; 300 µM, 3 h, together with: diacetyl 2 mM): ~65%

COc1cnc(NS(=O)(=O)c2ccc(NC(=O)/C=C\c3ccc(O)c(O)c3)cc2)nc1
protective concentration (cell viability, MTT; 24 h pretreatment, together with: H2O2 800 µM for 4 h): ≤ 200 µM

ANKHYF
adherent cells (peptide; 2 µg coated per well, 30 to 60 min; reference: thrombospondin-coated wells): 10%

CC(=O)Oc1ccc(/C=C\C(=O)Nc2ccc(S(=O)(=O)Nc3ncccn3)cc2)cc1OC(C)=O
protective concentration (cell viability, MTT; 24 h pretreatment, together with: H2O2 800 µM for 4 h): ≤ 50 µM

CSTSCR
adherent cells (peptide; 2 µg coated per well, 30 to 60 min; reference: thrombospondin-coated wells): 104%

Nc1nccc(-n2cc(C(=O)N3CCNC(=O)C3)c3ccc(C#CC4(O)CCCCC4)cc32)n1
cell migration (wound-healing; 5 µM): 73%

Cn1c(=O)n(-c2ccc(C(C)(C)C#N)cc2)c2c3cc(-c4cnc5ccccc5c4)ccc3ncc21
EC50 (SQ/TQ site phosphorylation, phosphoproteomics): 25 to 190 nM

NC(=O)Cn1cc(COc2ccccc2-c2nc(-c3ccccc3)no2)nn1
mRNA level (qPCR, item: PI3K; IC50, 24 h; reference: untreated cancer cells): 0.28 ± 0.002 fold

TCVCGS
adherent cells (peptide; 2 µg coated per well, 30 to 60 min; reference: thrombospondin-coated wells): 10%

Nc1nccc(-n2cc(C(=O)N3CC[C@H](N)C3)c3ccc(C#CC4(O)CCCCC4)cc32)n1
cell migration (wound-healing; 5 µM): 63%

COc1cccc2c1C(=O)c1c(O)c3c(c(O)c1C2=O)C[C@@](O)(C(=O)CO)C[C@@H]3O[C@H]1C[C@H](N)[C@H](O)[C@H](C)O1
mRNA level (qPCR, item: PI3K; IC50, 24 h; reference: untreated cancer cells): 0.1 ± 0.008 fold

Nc1nccc(-n2cc(C(=O)N3CCC[C@H](N)C3)c3ccc(C#CC4(O)CCCCC4)cc32)n1
cell migration (wound-healing; 5 µM): 71%

NNC(=O)Cn1cc(COc2ccccc2-c2nc(-c3ccccc3)no2)nn1
mRNA level (qPCR, item: EGFR; IC50, 24 h; reference: untreated cancer cells): 0.26 ± 0.03 fold

Nc1ncnc2c1nc(Sc1ccc(Cl)cc1)n2[C@@H]1O[C@@H]2COP(=O)(O)O[C@H]2[C@H]1O
cell surface pH (fluorescein-WGA ratio imaging; concentration not given, 37 °C, medium pH 7.4): 6.55

NS(=O)(=O)c1ccc(NC(=O)/C=C\c2ccc(O)c(O)c2)cc1
protective concentration (cell viability, MTT; 24 h pretreatment, together with: H2O2 800 µM for 4 h): ≤ 200 µM

Nc1nccc(-n2cc(C(=O)N3CCC(N)CC3)c3ccc(C#CC4(O)CCCCC4)cc32)n1
cell migration (wound-healing; 5 µM): 56%

COc1cc(/C=C/C(=O)/C=C/c2cc(OC)c(OC)c(OC)c2)cc(OC)c1OC
GI50 (cell growth or viability, SRB; 48 h): 530 nM

Nc1nccc(-n2cc(C(=O)N[C@@H]3CCNC3)c3ccc(C#CC4(O)CCCCC4)cc32)n1
cell migration (wound-healing; 5 µM): 63%

CC[C@@]1(O)C(=O)OCc2c1cc1n(c2=O)Cc2cc3ccccc3nc2-1
Hill slope (cytotoxicity, MTT; 48 h): -0.692

Excerpt of the above:
Nc1ncnc2[nH]ncc12
EC50 (cell viability): 3000 nM
